Measurements gathered from unrelated publications.
± marks the error that the study gave.

Under “weight-normalised steady-state clearance”, `CCCCCOc1ccc(-c2cc(-c3ccc(C(=O)N[C@H]4C[C@@H](O)[C@@H](O)NC(=O)[C@@H]5[C@@H](O)[C@@H](C)CN5C(=O)[C@H]([C@H](O)CC(N)=O)NC(=O)[C@H]([C@H](O)[C@@H](O)c5ccc(O)c(OS(=O)(=O)O)c5)NC(=O)[C@@H]5C[C@@H](O)CN5C(=O)[C@H]([C@@H](C)O)NC4=O)cc3)no2)cc1` is recorded as 0.313 mL/min/kg (human paediatric patients 2 to 5 years, plasma; intravenous, 4.5 mg/kg once daily, day 7, geometric mean).
For `CS(=O)(=O)CCCn1c(Cn2c(=O)n(CC(F)(F)F)c3ccncc32)cc2cc(Cl)ccc21`, “patients with low MCH” read 11% (RSV-infected infants; concentration not given, all dose cohorts).
For `CN[C@@](C)(C[18F])C(=O)O`, the tissue uptake was 2.7 ± 0.7 %ID/g (SCID mouse DU-145 xenograft, lung; 15 min, post injection).
`O.[C-]#[O+].[C-]#[O+].[C-]#[O+].[Re+].c1ccc(-c2ccnc3c2ccc2c(-c4ccccc4)ccnc23)cc1` has a capacity factor of over 10 (RP-HPLC C18 column, measured: free diimine ligand; MeCN:water 40:60, 0.1% TFA; isocratic elution).
`intermedine` gave a blood-to-plasma ratio of 1.12 (LC-MS/MS depletion; human whole blood; 1000 ng/mL, 60 min, 37 °C).
For `[123I]c1cncc(OC[C@@H]2CCN2)c1`, the tissue/plasma ratio was 20.9 (SPECT; human, low plasma nicotine, cortex; intravenous, dose not given; reference: plasma).
`CNC(=O)c1ccc(-c2cnn3ccc(C(=O)N(C)c4ccc(Cl)c(C(=O)OC)c4)cc23)cc1` gave a Cmax of 38.7 ng/mL (beagle dogs, both sexes, plasma; oral, 50 mg/kg/day, day 14).
The Tmax of `CC[C@H](C)[C@H](NC(=O)[C@@H](N)CCCNC(=N)N)C(=O)N[C@H](C(=O)N1CCC[C@H]1C(=O)N[C@@H](C)C(N)=O)C(C)C` is reported as 4 min (healthy volunteers, both sexes, plasma; intravenous infusion, 0.5 mg/kg daily, day 7, multiple ascending dose).
`CSCC[C@@H]1NC(=O)[C@H](CC(=O)O)NC(=O)CNC(=O)[C@H](CCCNC(=N)N)NC(=O)[C@H](C)NC(=O)[C@H](CCC(=O)O)NC(=O)[C@H](CCCNC(=N)N)NC(=O)[C@@H]2CSSC[C@@H]3NC(=O)[C@H](CO)NC(=O)[C@H]([C@@H](C)O)NC(=O)[C@@H]4CCCN4C(=O)[C@H](C)NC(=O)[C@H](Cc4c[nH]c5ccccc45)NC(=O)[C@H](CC(=O)O)NC(=O)CNC(=O)[C@H](CCCNC(=N)N)NC(=O)CNC(=O)[C@H](CCC(N)=O)NC(=O)[C@@H]4CCCN4C(=O)[C@@H](NC(=O)CNC(=O)C(C)F)CSSC[C@H](NC(=O)CNC(=O)[C@H](C)NC(=O)[C@H](CC(C)C)NC(=O)[C@H](CSSC[C@@H](C(=O)NCC(N)=O)NC(=O)[C@H]([C@@H](C)O)NC(=O)[C@H](CCCNC(=N)N)NC(=O)[C@@H]4CCCN4C1=O)NC(=O)[C@H](CC(=O)O)NC(=O)[C@H](CO)NC(=O)[C@H](CC(=O)O)NC(=O)[C@H](CCC(N)=O)NC(=O)[C@H](CO)NC3=O)C(=O)N[C@@H](C(C)C)C(=O)N2` (stereo partly drawn) [fluorine-18 labelled] gave a tissue uptake of 1.94 ± 0.75 %ID/g (nude mouse, U-87 MG xenograft, kidneys; intravenous, 2.5 h, added: cyclo(RGDyK) co-injected).
The solubility of `COC(=O)c1ccc(Nc2ccc3c(c2)C(c2ccccc2F)=NC(C)C(=O)N3)cc1` (stereo not drawn) is reported as under 1 µM (shake flask; PBS; 24 h, pH 7.4).
`NC(=O)c1nc(F)c[nH]c1=O` has a solubility of 367 µg/mL (UV-Vis spectrophotometry; supercritical CO2; 120 min, 318 K, 18 MPa, 790.18 kg/m^3).
With `CC(=O)CO` the steady-state flux was 170 ± 45.1 µg/cm²/h (human skin ex vivo; 500 µL infinite dose, 5% m/V, ethanol/water vehicle).
